Published values pooled from the literature.
A part holds a random share of what one study measured. Positions count from the first letter of the parent shown.

Study 1
Target: ABI1, truncated, D143A, DHFR fusion (Arabidopsis thaliana)
Method: DHFR PCA, deep sequencing
Sample: yeast
Setting: methotrexate growth selection, single substitutions
With: (+)-ABA 58 µM
Relative to: wild-type fitted maximum
Direction: higher = stronger binding
Parent: PYL1, truncated, DHFR fusion (Arabidopsis thaliana); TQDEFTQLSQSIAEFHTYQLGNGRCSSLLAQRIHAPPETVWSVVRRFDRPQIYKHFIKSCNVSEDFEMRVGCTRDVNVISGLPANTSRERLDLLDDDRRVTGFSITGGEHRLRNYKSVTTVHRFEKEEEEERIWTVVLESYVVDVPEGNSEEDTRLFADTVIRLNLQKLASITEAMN
For `M68R`, “relative binding score” read 53.5%.
For `S140R`, “relative binding score” read 1.77%.
`R46G`: “relative binding score” 55%.
Under “relative binding score”, `V43K` is recorded as 40.4%.
Under “relative binding score”, `E89F` is recorded as -0.277%.
`E109M` — result for “relative binding score”: 71%.
For `R32P`, “relative binding score” read 63.7%.
For `S171K`, “relative binding score” read 86.8%.
For `A175M`, “relative binding score” read 78.2%.
`S27Q` — result for “relative binding score”: 73.6%.
`G23L` — result for “relative binding score”: 62.7%.
For `Y115W`, “relative binding score” read 45.1%.

Study 2
Target: CCNE2, cyclin fold, Cln2 fusion (human)
Method: yeast growth competition, sequencing
Sample: yeast
Setting: strong parent motif
Relative to: not given
Direction: higher = stronger binding
Parent: SCAPER docking peptide (human); SNARRSLNFGGST
`SNARRSLNCGGST [F9C]`: “normalised enrichment score” 0.0639.
For `SNARRSLNFGQST [G11Q]`, “normalised enrichment score” read 1.37.
`SNARRSLNFGEST [G11E]` — result for “normalised enrichment score”: 0.526.
`SNARRSANFGGST [L7A]`: “normalised enrichment score” 0.543.
Under “normalised enrichment score”, `SNARKSLNLGGST [R5K F9L]` is recorded as 0.15.
Under “normalised enrichment score”, `SNARRSRNFGGST [L7R]` is recorded as 0.307.
For `SNARRSLNFGGCT [S12C]`, “normalised enrichment score” read 1.21.
Under “normalised enrichment score”, `QNARRSLNFGGST [S1Q]` is recorded as 0.855.
For `SNARRSLNFAGST [G10A]`, “normalised enrichment score” read 1.04.
Under “normalised enrichment score”, `SNARRSLRFGGST [N8R]` is recorded as 0.792.
Under “normalised enrichment score”, `SNARRSLNFGGYT [S12Y]` is recorded as 1.49.
`SNATRSLNFGGST [R4T]` — result for “normalised enrichment score”: 0.701.

Study 3
Target: RNA binding protein fox-1 homolog 2, RRM domain, GST-SBP tag (RBFOX2, Homo sapiens, UniProt O43251-10, residues 100-194)
Method: RNA Bind-n-Seq
Form: RNA
Sample: in vitro
Tested at: 365 nM
Setting: natural RNA segment, single round, ends assumed
Relative to: no-protein control
Direction: higher = stronger binding
Residues (chain): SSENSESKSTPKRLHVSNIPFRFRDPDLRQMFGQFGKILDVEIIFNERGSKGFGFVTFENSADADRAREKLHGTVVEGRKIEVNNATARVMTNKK
`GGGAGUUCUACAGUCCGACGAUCGGUUAUAUCCAGUUAUACAGGCGAGGAGGGGCUGUGGUAAAGACAGAUUAAAAGGAACAAAUGAAGUUCAUUUGGUGUGCCAGAUUGCCCCUGUCUUACAAAUCCCAGACUGGAAUUCUCGGGUGCCAA` — result for “RBNS enrichment (R)”: 0.249.
`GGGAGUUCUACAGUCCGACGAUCAUAGAAACAAUUUCCUAUUACACAGAAAUGACUAAUUCCAGAGUCUCAUGAUAUAAUUUGCUAUAACAAUAUUGUAUUAUGCCUUGAAGUUUUAAGCAUUUAAUAUAAAAUGGAAUUCUCGGGUGCCAA`: “RBNS enrichment (R)” 0.378.
`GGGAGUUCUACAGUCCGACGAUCUGUCAUUUGGGGGAUGGAAUGAACAGUCACUGUUCUAUAGCAUCCUCCUGUGCUCUUACCUAAGGAAUCUAAAUUGUCCUAGCCUUCCAUUGCUAUGCACUGAAUGAGGAUGGAAUUCUCGGGUGCCAA`: “RBNS enrichment (R)” 0.528.
`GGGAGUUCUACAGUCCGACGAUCAUCCUAGGUGCCCCCAGUGCACUGUCCUUGUCUGUCUGAAGCACCCAUCUCUACCUUCCCUGGCCAGUCCUCUGACGGUUCACAAGGGCCAGAGAUAUGGACUUUAUUUUUGGAAUUCUCGGGUGCCAA` — result for “RBNS enrichment (R)”: 0.282.
For `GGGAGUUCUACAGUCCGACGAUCUAAGCUGCUCUUUUGGCCUGAACACAUUAGUGAUGACUUCUAUGGCAUGGAAUUUUACCCAUGAUUUCCUUACCACUAGGAUCUACAUUGAUAAAAAAAAUUGAUUAAAUUGGAAUUCUCGGGUGCCAA`, “RBNS enrichment (R)” read 0.596.
`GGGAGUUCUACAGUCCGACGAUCAUUUUGAAAAGGAUAACAAGGCUGGGCACAGUGACUCACACCUGUAAUCCUAGCACUUUGAGAGGCUAAGAAGGGAGGAUCACUUGAACCCAGGAGUUCAAGACCAGCCUUGGAAUUCUCGGGUGCCAA`: “RBNS enrichment (R)” 0.303.
`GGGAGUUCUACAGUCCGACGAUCAGGUGCUGCUUUGUAUAUCAAAAGCUCCAACCAUGUCCUCUCCCCCUCAGCCUGUGGGUGGCACGAGCAAGGACUGACAUCCGCACAGGGAGGAUUGUCUGUUUGGCUGAUGGAAUUCUCGGGUGCCAA`: “RBNS enrichment (R)” 0.401.

Mixed results
With `PhoQ, residues 284 288 289 292 302 303 SCKMEA` the fold induction was 4.34 (PhoP, residues 12 14 15 18 19 NQGLL (Escherichia coli, UniProt P23836); Sort-seq, refers to: YFP reporter; E. coli; PhoQ-PhoP variant library, with: 10 µM Mg2+; relative to: high Mg2+ state, higher = stronger signaling).

Excerpt of the above (study 2):
`SNARRSLNFGEST [G11E]` — result for “normalised enrichment score”: 0.526.
`SNARRSANFGGST [L7A]`: “normalised enrichment score” 0.543.
